# Assay results pooled from the literature.
# Numbered parts are unrelated; each lists some results of a single study.

# Set 1 — method: RNA Bind-n-Seq; form: RNA; medium: in vitro; concentration: 200 nM; setting: whole 134-nt RNA, ends assumed; together with: 150 mM KCl; reference: input library; reading: higher = stronger binding
# Target: Fragile X messenger ribonucleoprotein 1, C-terminal low-complexity region (Fmr1, Mus musculus, UniProt P35922)
# Shared flanks, not repeated: GGGAGUUCUACAGUCCGACGAUC … UGGAAUUCUCGGGUGUCAAGG
Oligonucleotide,log2 enrichment
CACAGACAACACGCACCCACACAGACACAGAGGGAAGGGGUUGGGAUGGGGACAGGGUGCACAGCAGGGCGGGGUAGGACCCCAGCCCCA,1.22
UCAAGUCCUGUGCUACACAUCGUAUGUACCGAAUCGGAAAAAGGAGGUUUUUGGAAAGUAUUAUGUUACGCCGUUCGGAUCUGCACUUCC,-0.412
AGUCCUGUGCUACACAUCGUAUGUACCGAAUCGGAAAAAAAGGUUUUUUUGGUUUGGAAAGUAUUAUGUUACGCCGUUCGGAUCUGCACU,-1.48
ACCGUGCAGGUGGGCAUCUUUGGGAAGUGGGGCAAGGGGGGGAUAGGGAGGGGGGUAACACUUUGGGAACAGGUGGUCCCAGGUCGUUUC,0.791
AGUCCUGUGCUACACAUCGUAUGUACCGAAUCGGCCCCCGGGGCCCCCGGCCCCCGGAAAGUAUUAUGUUACGCCGUUCGGAUCUGCACU,-0.522
CCUGUGCUACACAUCGUAUGUACCGAAUCGGGGUUUUUGGGGAAAAAGGGGAAAAAGGGGAAAGUAUUAUGUUACGCCGUUCGGAUCUGC,0.125
CCUGUGCUACACAUCGUAUGUACCGAAUCGGGGAAAGGGGAAAAAAAGGGGAAAAAGGGGAAAGUAUUAUGUUACGCCGUUCGGAUCUGC,-0.0735
CCUGUGCUACACAUCGUAUGUACCGAAUCAAAUUUUUUUAAAUUUUUUUAAACCCCCAAAAAAGUAUUAUGUUACGCCGUUCGGAUCUGC,0.11
UGCUGUUAUCUGGAACUCCUACCUGUCCUGGAAGGCACAUCGGCUCUAAGCCUGCCUCACUCCAUCGUUUCCACCUUGCAGUGAUGCAGC,-1.5

# Set 2 — method: protein binding microarray; form: double-stranded DNA, one strand shown; medium: in vitro; concentration: not given; reference: not given; reading: higher = stronger binding
# Target: Histone acetyltransferase KAT6A, both winged helices, GST fusion (KAT6A, Homo sapiens, UniProt Q92794, residues 1-181)
# Setting: 8-mer, flanks averaged, mean of 2 arrays, mostly near background
# Residues (chain): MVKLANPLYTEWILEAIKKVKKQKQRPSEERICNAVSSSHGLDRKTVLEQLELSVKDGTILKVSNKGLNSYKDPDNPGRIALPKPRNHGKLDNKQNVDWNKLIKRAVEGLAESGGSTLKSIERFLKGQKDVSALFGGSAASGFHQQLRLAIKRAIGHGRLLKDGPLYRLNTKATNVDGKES
Oligonucleotide,E-score
GCAATACA,0.183
ACGTTACT,-0.0719
AACCTCGA,-0.0833
GGGGTACA,-0.083
ACTTCCAG,-0.0715
CAAGATCG,0.151
CACGCGCG,0.381
ATTAGTCC,-0.0413
CAATGGAA,0.0308
AGCGCCAA,0.0958
CAGGTCCA,-0.169
CCTCCGAA,-0.0801
AATGTGCC,0.0818
GATCTACC,-0.038
AGAGGAGC,-0.0886
GCAGCCCC,-0.0666
AATAGTAA,-0.187
AAAGACCG,0.157
CCATTGCC,-0.11
AGAAAGCC,-0.1
AGAGGGGC,-0.212
AGGTTATC,-0.171
GGAGACAA,-0.11
ATGACGCC,0.0863
GCTTTTAA,0.0795

# Set 3 — method: universal PBM; form: double-stranded DNA, one strand shown; medium: in vitro; concentration: not given; reading: higher = stronger binding
# Target: Sal-like protein 4, full length isoform B (SALL4, Homo sapiens, UniProt Q9UJQ4-2, residues 1-616)
# Setting: 8-mer, flanks averaged, mean of replicates
# Target sequence (chain): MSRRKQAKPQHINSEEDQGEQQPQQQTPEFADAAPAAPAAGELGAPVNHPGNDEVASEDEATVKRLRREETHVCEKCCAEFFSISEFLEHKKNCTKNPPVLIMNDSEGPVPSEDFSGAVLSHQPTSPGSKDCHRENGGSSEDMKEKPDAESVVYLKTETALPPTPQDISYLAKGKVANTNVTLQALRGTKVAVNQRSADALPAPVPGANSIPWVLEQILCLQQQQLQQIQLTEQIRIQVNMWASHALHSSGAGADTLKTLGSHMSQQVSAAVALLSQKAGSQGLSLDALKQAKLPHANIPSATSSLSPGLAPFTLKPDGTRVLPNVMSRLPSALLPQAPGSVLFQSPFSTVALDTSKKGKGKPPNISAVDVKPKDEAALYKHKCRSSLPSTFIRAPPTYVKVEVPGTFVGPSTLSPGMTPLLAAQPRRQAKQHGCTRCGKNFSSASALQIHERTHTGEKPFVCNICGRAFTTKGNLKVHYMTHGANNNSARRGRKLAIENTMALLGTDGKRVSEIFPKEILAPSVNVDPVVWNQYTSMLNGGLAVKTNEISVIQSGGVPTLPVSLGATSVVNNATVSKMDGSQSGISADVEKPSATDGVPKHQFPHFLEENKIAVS
Oligonucleotide,E-score
GAGGCAGA,-0.14
GTAGCTAC,0.0693
AAAGGACC,-0.226
ATGCAACG,0.0265
CATACAGG,0.163
CCCGCCTA,-0.0135
TATTGAAA,0.394
AGACTATG,0.0174
ACCGGCTC,-0.218
GACAGCAA,0.0526
ACCAGCCC,-0.222
GATTGTGC,-0.0869
AGGTACTA,0.0941
ATTGAGCC,-0.0145
AGTTCACA,0.105
CCACCCCG,-0.0592
CGCAAGGA,-0.196
CTATTCGC,0.0533
AGAGAGGG,-0.212
CGGTATCA,-0.0143
AAGGAATG,0.143
CGGTCGGC,-0.306
CCATCTTA,-0.15
CCTCCGCA,-0.0412
GGAGGCCA,-0.32

# Set 4 — method: aptamer microarray, sandwich; form: DNA with 2'F-ANA; medium: in vitro; concentration: 200 nM; together with: Cy3 exosite-II aptamer, 400 nM; reading: higher = stronger binding; oligonucleotide: GGTTGGTGTGGTTGG
# Target: Prothrombin, mature alpha-thrombin (F2, Homo sapiens, UniProt P00734)
# Setting: whole 15-mer aptamer, many near background
Modification,mean fluorescence intensity
2'F-ANA at 1 2 4 5 6 8 9 10 11 12 15,52.8 a.u.
2'F-ANA at 1 4 6 7 8 10 11 13,51.7 a.u.
2'F-ANA at 5 8 9 10 11 12 13 14 15,55.3 a.u.
2'F-ANA at 1 2 3 4 5 6 9 10 13 15,50.5 a.u.
2'F-ANA at 6 11 12 13,641 a.u.
2'F-ANA at 1 8 9 13,144 a.u.
2'F-ANA at 1 3 5 6 7 10 11 13,60.5 a.u.
2'F-ANA at 1 2 3 4 5 6 8 9 11 12 13 15,103 a.u.
2'F-ANA at 1 2 3 4 8 10 12 14,49.4 a.u.
2'F-ANA at 1 2 4 6 7 8 11 14 15,53.7 a.u.
2'F-ANA at 2 3 4 5 6 7 8 9,99.9 a.u.
2'F-ANA at 3 4 6 15,515 a.u.
2'F-ANA at 5 7 8 10 11 15,47.5 a.u.
2'F-ANA at 2 5 8 10 14,43.8 a.u.
2'F-ANA at 1 4 7 9 12 14,57.7 a.u.
2'F-ANA at 4 7 9 10 11 13,76.1 a.u.
2'F-ANA at 1 3 6 9 14,76.5 a.u.
2'F-ANA at 2 4 12 13 14 15,120 a.u.
2'F-ANA at 1 2 3 4 8 9 11 12 14,78.9 a.u.
2'F-ANA at 1 4 6 8 10 11 15,50.4 a.u.
2'F-ANA at 5 10 13,44.3 a.u.
2'F-ANA at 2 7 10 11 12 13,179 a.u.
2'F-ANA at 7 13 14,259 a.u.
